Published values pooled from the literature.
Protocols differ between the studies behind these lines.
Organism: Staphylococcus aureus

SMILES | assay | system | setting | MIC
CCCCCCCCCC(=O)N[C@@H](Cc1c[nH]c2ccccc12)C(=O)N[C@H](CC(N)=O)C(=O)N[C@@H](CC(=O)O)C(=O)N[C@@H]1C(=O)NCC(=O)N[C@@H](CCCN)C(=O)N[C@@H](CC(=O)O)C(=O)N[C@H](C)C(=O)N[C@@H](CC(=O)O)C(=O)NCC(=O)N[C@H](CO)C(=O)N[C@@H]([C@H](C)CC(=O)O)C(=O)N[C@@H](CC(=O)c2ccccc2N)C(=O)O[C@@H]1C |  | SH1000 | together with: sphingomyelin, molar ratio 0.5 | 1 µg/mL
CC1(C)S[C@@H]2[C@H](NC(=O)[C@H](N)c3ccccc3)C(=O)N2[C@H]1C(=O)O |  | ATCC 29213 | 16 h | 2 µg/mL
CC1CCN(CCCN2/C(=C/c3cc[n+](C)c4ccccc34)Sc3ccccc32)CC1.[I-] | broth microdilution | ATCC 29213 |  | 2 µg/mL
[H]/N=C(/N)N[C@H]1[C@H](O)[C@@H](O)[C@H](O[C@@H]2O[C@@H](C)[C@](O)(C=O)[C@H]2O[C@@H]2O[C@@H](CO)[C@H](O)[C@@H](O)[C@@H]2NC)[C@@H](N/C(N)=N\[H])[C@@H]1O |  | CVCC546 | alone | 1 µg/mL
CC[C@H]1OC(=O)[C@H](C)[C@@H](O[C@H]2C[C@@](C)(OC)[C@@H](O)[C@H](C)O2)[C@H](C)[C@@H](O[C@@H]2O[C@H](C)C[C@H](N(C)C)[C@H]2O)[C@](C)(O)C[C@@H](C)C(=O)[C@H](C)[C@@H](O)[C@]1(C)O |  | 129 MRSA clinical isolate |  | > 100 µM
C/C=C(\C)c1cc(O)c(C)c(OC(=O)c2c(C)cc(O)c(Cl)c2O)c1 | broth microdilution | 718306 |  | 16 µg/mL
CN[C@H](CC(C)C)C(=O)N[C@H]1C(=O)N[C@@H](CC(N)=O)C(=O)N[C@H]2C(=O)N[C@H]3C(=O)N[C@H](C(=O)N[C@H](C(=O)O)c4cc(O)cc(O)c4-c4cc3ccc4O)[C@H](O)c3ccc(c(Cl)c3)Oc3cc2cc(c3O[C@@H]2O[C@H](CO)[C@@H](O)[C@H](O)[C@H]2O[C@H]2C[C@](C)(N)[C@H](O)[C@H](C)O2)Oc2ccc(cc2Cl)[C@H]1O | broth microdilution | MRSA clinical isolate, Mueller-Hinton broth | 20 h, 37 °C | < 0.5 µg/mL
CC[C@H]1OC(=O)[C@H](C)[C@@H](O[C@H]2C[C@@](C)(OC)[C@@H](O)[C@H](C)O2)[C@H](C)[C@@H](O[C@@H]2O[C@H](C)C[C@H](N(C)C)[C@H]2O)[C@](C)(O)C[C@@H](C)C(=O)[C@H](C)[C@@H](O)[C@]1(C)O |  | MRSA 2 |  | 18.8 µM
CN[C@H](CC(C)C)C(=O)N[C@H]1C(=O)N[C@@H](CC(N)=O)C(=O)N[C@H]2C(=O)N[C@H]3C(=O)N[C@H](C(=O)N[C@H](C(=O)O)c4cc(O)cc(O)c4-c4cc3ccc4O)[C@H](O)c3ccc(c(Cl)c3)Oc3cc2cc(c3O[C@@H]2O[C@H](CO)[C@@H](O)[C@H](O)[C@H]2O[C@H]2C[C@](C)(N)[C@H](O)[C@H](C)O2)Oc2ccc(cc2Cl)[C@H]1O | broth microdilution | MRSA USA300, cation-adjusted Mueller-Hinton broth | 20 to 24 h, 37 °C, 0.002% polysorbate 80 | 0.25 µg/mL
Cc1nc(O)n2ncc(Br)c2n1 |  |  |  | > 128 µg/mL
CN(C)c1ccc2nc3ccc(=[N+](C)C)cc-3sc2c1 |  | ATCC 43300, resistant | 18 h, 37 °C, dark | 128 µM
C[C@H]1COC2=C1C(=O)C(=O)c1c2ccc2c1CCCC2(C)C |  | GDMCC 1.122 | 48 h | 125 µM
CCN(CC)/C(N)=N\c1ccc(NC(=O)c2ccc(C(=O)Nc3ccc(/N=C(\N)N(CC)CC)cc3)cc2)cc1 |  |  |  | 8 µg/mL
Cl.Oc1cccc2c1[nH]c1c(C3=CC4(O)CC/C=C\CCCCN5CCC3C3(CC6/C=C\CCCCN6C43)C5)nccc12 (single isomer, unassigned; (+)) | growth | ATCC 43300 methicillin-resistant |  | 5 µg/mL
CN(C)[C@@H]1C(O)=C(C(N)=O)C(=O)[C@@]2(O)C(O)=C3C(=O)c4c(O)cccc4[C@@](C)(O)[C@H]3C[C@@H]12 |  | 129 MRSA clinical isolate |  | 0.1 µM
O=[N+]([O-])c1ccc(O)c2ncccc12 | broth microdilution | ATCC 43300 MRSA |  | 8 µg/mL
CC(C)CCNc1nc(Cl)c2c(c1O)C(=O)C1=C(O)[C@]3(O)C(=O)C(C(N)=O)=C(O)[C@@H](N(C)C)[C@@H]3C[C@@H]1C2.Cl.Cl.Cl | broth microdilution CLSI | ATCC 29213 |  | 0.5 µg/mL
COc1cccc(OC)c1C(=O)N[C@@H]1C(=O)N2[C@@H]1SC(C)(C)[C@@H]2C(=O)O | broth microdilution | BNCC 186335 |  | 0.25 µg/mL
CO/N=C(\C(=O)N[C@@H]1C(=O)N2C(C(=O)O)=C(COC(C)=O)CS[C@H]12)c1csc(N)n1 | broth microdilution | ATCC 43300 | 18 h | 4 µg/mL

SMILES | assay | system | setting | MIC
CC[C@H]1OC(=O)[C@H](C)[C@@H](O[C@H]2C[C@@](C)(OC)[C@@H](O)[C@H](C)O2)[C@H](C)[C@@H](O[C@@H]2O[C@H](C)C[C@H](N(C)C)[C@H]2O)[C@](C)(O)C[C@@H](C)C(=O)[C@H](C)[C@@H](O)[C@]1(C)O | broth microdilution | BNCC 186335 |  | 4 µg/mL
CCn1cc(C(=O)O)c(=O)c2cc(F)c(N3CCNCC3)cc21 | broth microdilution | ATCC 43300 | 18 h | 1 µg/mL
NC[C@H]1O[C@H](O[C@H]2[C@H](O)[C@@H](O[C@H]3O[C@H](CO)[C@@H](O)[C@H](N)[C@H]3O)[C@H](N)C[C@@H]2N)[C@H](N)C[C@@H]1O |  | MRSA 1 |  | 6.25 µM
CN[C@H](CC(C)C)C(=O)N[C@H]1C(=O)N[C@@H](CC(N)=O)C(=O)N[C@H]2C(=O)N[C@H]3C(=O)N[C@H](C(=O)N[C@H](C(=O)O)c4cc(O)cc(O)c4-c4cc3ccc4O)[C@H](O)c3ccc(c(Cl)c3)Oc3cc2cc(c3O[C@@H]2O[C@H](CO)[C@@H](O)[C@H](O)[C@H]2O[C@H]2C[C@](C)(N)[C@H](O)[C@H](C)O2)Oc2ccc(cc2Cl)[C@H]1O | broth microdilution | MRSA NCTC 12493 |  | 1 µM
C[C@H](N)C(=O)N[C@H](C(=O)N[C@@H](CS)C(=O)N[C@@H](Cc1ccc(O)cc1)C(=O)N[C@@H](CS)C(=O)N[C@@H](CCCNC(=N)N)C(=O)N[C@H](C(=O)NCC(=O)N[C@@H](CCCNC(=N)N)C(=O)O)[C@@H](C)O)[C@@H](C)O | broth turbidity | USA300 |  | 50 µM
Oc1c(Br)cc(Br)c2nc3c(F)cccc3nc12 | broth microdilution | MRSA BAA-44 |  | 0.78 µM
CN[C@H](CC(C)C)C(=O)N[C@H]1C(=O)N[C@@H](CC(N)=O)C(=O)N[C@H]2C(=O)N[C@H]3C(=O)N[C@H](C(=O)N[C@H](C(=O)O)c4cc(O)cc(O)c4-c4cc3ccc4O)[C@H](O)c3ccc(c(Cl)c3)Oc3cc2cc(c3O[C@@H]2O[C@H](CO)[C@@H](O)[C@H](O)[C@H]2O[C@H]2C[C@](C)(N)[C@H](O)[C@H](C)O2)Oc2ccc(cc2Cl)[C@H]1O |  | USA300 MRSA | together with: ZnSO4 0.3 mM | 1 µg/mL
NC[C@H]1O[C@H](O[C@H]2[C@H](O)[C@@H](O[C@H]3O[C@H](CO)[C@@H](O)[C@H](N)[C@H]3O)[C@H](N)C[C@@H]2N)[C@H](O)[C@@H](O)[C@@H]1O | broth microdilution | ATCC 29213 |  | 3.43 µM
NCCCC[C@H](NC(=O)[C@H](Cc1ccccc1)NC(=O)[C@H](CCC(N)=O)NC(=O)[C@H](Cc1ccccc1)NC(=O)[C@H](CCC(N)=O)NC(=O)[C@@H](N)Cc1ccccc1)C(N)=O | broth microdilution, optical density | ATCC 25923 |  | > 2000 µM
NC[C@H]1O[C@H](O[C@H]2[C@H](O)[C@@H](O[C@H]3O[C@H](CO)[C@@H](O)[C@H](N)[C@H]3O)[C@H](N)C[C@@H]2N)[C@H](N)C[C@@H]1O |  | 147 MRSA clinical isolate |  | 6.25 µM
CN(C)[C@@H]1C(O)=C(C(N)=O)C(=O)[C@@]2(O)C(O)=C3C(=O)c4c(O)cccc4[C@@](C)(O)[C@H]3C[C@@H]12 |  | 138 |  | 0.15 µM
CC[C@@H](C)[C@H]1O[C@@H](c2c(O)c(-c3ccccc3)cn(O)c2=O)[C@H](C)C[C@@H]1C |  | ATCC 33591, MRSA |  | > 20 µg/mL
NC[C@@H]1O[C@H](O[C@H]2[C@@H](O)[C@H](O[C@@H]3[C@@H](O)[C@H](N)C[C@H](N)[C@H]3O[C@H]3O[C@H](CN)[C@@H](O)[C@H](O)[C@H]3N)O[C@@H]2CO)[C@H](N)[C@@H](O)[C@@H]1O |  | HG003 wild type |  | 20 µg/mL
Cc1cc(C)c2c(=O)cc(C(=O)Nc3nc4ccc(F)cc4s3)oc2c1 |  |  |  | > 128 µg/mL
CN(C)[C@@H]1C(O)=C(C(N)=O)C(=O)[C@@]2(O)C(O)=C3C(=O)c4c(O)cnc(F)c4C[C@H]3C[C@@H]12.Cl | broth microdilution CLSI | ATCC 29213 |  | 0.031 µg/mL
O=[N+]([O-])c1cnc2ccc(Cl)cc2c1O |  |  |  | > 128 µg/mL
CNC(C)C1CCC(N)C(OC2C(N)CC(N)C(OC3OCC(C)(O)C(NC)C3O)C2O)O1 (centres unmarked) |  | clinical isolate S.A02, RPMI with FBS | 24 h, 37 °C | 0.39 µM
CC12CC3(C)CC(C(=O)O)(C1)CC(C(=O)O)(C2)C3 |  |  |  | > 128 µg/mL
Cc1[nH]c(C(=O)Nc2ccc(C(=O)NCc3n[nH]c(=O)o3)cc2N2CCN(C(=O)OC(C)(C)C)CC2)c(Cl)c1Cl | broth microdilution | ATCC 29213 |  | 1 µg/mL

Some of these lines once more:
SMILES | assay | system | setting | MIC
CN(C)[C@@H]1C(O)=C(C(N)=O)C(=O)[C@@]2(O)C(O)=C3C(=O)c4c(O)cccc4[C@@](C)(O)[C@H]3C[C@@H]12 |  | 129 MRSA clinical isolate |  | 0.1 µM
O=[N+]([O-])c1ccc(O)c2ncccc12 | broth microdilution | ATCC 43300 MRSA |  | 8 µg/mL
CC(C)CCNc1nc(Cl)c2c(c1O)C(=O)C1=C(O)[C@]3(O)C(=O)C(C(N)=O)=C(O)[C@@H](N(C)C)[C@@H]3C[C@@H]1C2.Cl.Cl.Cl | broth microdilution CLSI | ATCC 29213 |  | 0.5 µg/mL
COc1cccc(OC)c1C(=O)N[C@@H]1C(=O)N2[C@@H]1SC(C)(C)[C@@H]2C(=O)O | broth microdilution | BNCC 186335 |  | 0.25 µg/mL
